Experimental data collected from several papers.
Numbered parts are unrelated; each lists some results of a single study.

Sample 1 — technique: RNA Bind-n-Seq; form: RNA; medium: in vitro; tested at: not given; baseline: input RNA pool; reading: higher = stronger binding
Target: RING finger protein unkempt homolog, zinc fingers 1-6, GST-SBP tag (UNK, Homo sapiens, UniProt Q9C0B0, residues 30-357)
Chain of UniProt Q9C0B0 (30-357, looked up): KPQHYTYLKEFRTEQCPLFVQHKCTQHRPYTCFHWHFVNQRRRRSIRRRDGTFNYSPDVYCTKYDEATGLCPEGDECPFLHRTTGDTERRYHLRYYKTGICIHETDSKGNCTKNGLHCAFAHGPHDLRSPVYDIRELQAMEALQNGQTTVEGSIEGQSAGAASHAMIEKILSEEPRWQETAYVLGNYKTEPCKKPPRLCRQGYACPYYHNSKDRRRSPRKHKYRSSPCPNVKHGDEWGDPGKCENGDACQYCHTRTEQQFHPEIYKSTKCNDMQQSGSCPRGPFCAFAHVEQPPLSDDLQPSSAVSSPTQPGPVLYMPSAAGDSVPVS
Setting: RNA with constant flanks, human-mouse chimeric sites, ends assumed
Shared flanks, not repeated: GGGAGUUCUACAGUCCGACGAUC … CAACAGAGGAUUGAGCAUCA
`CACAGAGCAGCACCUACCUCCUCCUUCUUUCCACACCUGCAAACUCUUUUACUUGGGCUGAAUAUUUAGUGUAAUUACAUCUCAGCUUUGAGGGCUCCUGUGGCAAAAUACCCGGAUAAA` has a bound/input enrichment of 0.769 ratio.
With `UACUCAACUUUCUUGCCACAUUUUGAAUUCCAAGACAUUAUUCCUCCAGAUGACUUUCUAACGAGUGAUGAAGAGCAAGAUUCCGUUUUAUUUGGAACUAUGAGAGGACAAGUUGUUGGA` the bound/input enrichment was 0.211 ratio.
The bound/input enrichment of `AGAGAUAAGACAUCCAGGAACAUGCGAGGCUCCCGGAUGAAUGGGUUGCCUAGCCCCACUCACAGCGCCCACUGUAGCUUCUACAGAACCAGAACCUUGCAGGCAUUGAGUAAUGAGAAG` is reported as 0.124 ratio.
The bound/input enrichment of `AUGGAGAAGGAUUCUCUGCCCCGCUUUGUGCGCUCUGAAUUUUAUAAGGAGCUAAUCAAGUAGUCAUCUGGUCAGGCUUCCAAAAGUUCCUGUGAGUGUUGAGUUACAUAAUAACCCGCA` is reported as 0.184 ratio.
`UGUAGUUUCUUGAUUUAUCAUUUUUCUUGCUCGGGUUUUUCCUUUAGGAAAAGCCUAAAGAUUAGGUUGUAAGAAAAGAAAAUAGAAUGUUUCGAAGACCUGUGUUACAGGUAUUUCGUC` has a bound/input enrichment of 1.14 ratio.
`AGCACAACCCCAGCAAAGCUAAGAAAUCCUUGUACAAGUGAACAAAACUGCACCAGCCCAUUUAGCUACAAAAAUGUGCUCAGUCUUACUGACAGAGGAGAGUUUUUUAAUGAACUUGUU` has a bound/input enrichment of 1.27 ratio.
`ACUCAGAGAUCCACCUCCCAAAGUGCUGGGAGUAAAGUCUGAUAUUACACACCUAACUUGAUGGAUAUAUAUUUUUUUUAAUAUGAAUCUUCCUGUUCGUCCAGGGAGCAAGAACGGGUU` gave a bound/input enrichment of 0.231 ratio.
`CCUCUGCCCCGCUCUGCAGCCUGGGGACACUGGGCUGGGACCAGAAUCCAGCUUUCUUUUAAAACUCUCAGUGUAACUGUAUCCCGUUUUUUUCUUUUUUUUUUAAAUAGUGUAUUUUUU` gave a bound/input enrichment of 20.3 ratio.

Sample 2 — technique: competition protein-binding microarray; form: double-stranded DNA, one strand shown; medium: in vitro; tested at: 2 µM; added: Cbf1 competitor, 0.05 µM; reading: higher = stronger binding; shared flanks, not repeated: … GTCTTGATTCGCTTGACGCTGCTG
Target: Phosphate system positive regulatory protein PHO4, full length, GST-tagged (PHO4, Saccharomyces cerevisiae, UniProt P07270, residues 1-312)
Setting: whole 60-bp probe, lowest competitor level
Construct (chain): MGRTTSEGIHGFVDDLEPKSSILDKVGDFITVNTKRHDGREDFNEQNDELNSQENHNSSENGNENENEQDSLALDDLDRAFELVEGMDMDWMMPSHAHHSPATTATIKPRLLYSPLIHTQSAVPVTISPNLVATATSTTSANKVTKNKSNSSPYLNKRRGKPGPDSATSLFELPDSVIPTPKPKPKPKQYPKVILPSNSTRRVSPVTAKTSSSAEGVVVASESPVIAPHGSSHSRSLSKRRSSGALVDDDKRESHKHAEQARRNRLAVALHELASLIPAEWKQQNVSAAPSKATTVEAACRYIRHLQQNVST
`GAAATCAGAGAAGGTCCCGTGTCGGTAGGTACCTTA` gave a fluorescence intensity of 6260 a.u.
`TTTTTGCAGATCCCAATATTTCTACAGCCTTTGGGA` has a fluorescence intensity of 2360 a.u.
`GAAACCATCTTTTTCAACGTGTTGGAAACAGTAGGT` has a fluorescence intensity of 9170 a.u.
The fluorescence intensity of `AAATTACTAAGTTGCTTCGTGGGTGACGCCGTATGA` is reported as 6870 a.u.
The fluorescence intensity of `AAATTACTAAGTTGAAACGTGGGTGACGCCGTATGA` is reported as 14400 a.u.
`TTGTTTTTTGTGTGGCATGTGCAGCGAGCGATGAGT` has a fluorescence intensity of 12100 a.u.
`GTCTTGTCTCATTGAGAAGTGGGTGTCCCCACTTCA` gave a fluorescence intensity of 3810 a.u.
For `AGTCGACTGAGGCGGAACGTGTGGAAGGGAAGCAGG`, the fluorescence intensity was 11000 a.u.
The fluorescence intensity of `CTAACGAAGGTTTGAGTGGTGGGTGACAAGCCAAGT` is reported as 4440 a.u.
The fluorescence intensity of `CTTTCCCGATCTTAGCACGTGTTTTTAGCACATTTG` is reported as 17100 a.u.
The fluorescence intensity of `CATTAGCGTCTCTTTCACGTGCGGTCTGAGAACTAC` is reported as 14600 a.u.
`CTTCTGTAAATTTGACGAGTGGGTGGACGCGCCCCG` has a fluorescence intensity of 3990 a.u.
With `CTATTCTTGCTAATTGACGTGCGATGGTACCAGGAG` the fluorescence intensity was 6360 a.u.
The fluorescence intensity of `CACTACCACTGCGCACCCGTGACGGTGCTCCAAAGT` is reported as 7370 a.u.
For `AAATTACTAAGTTGATTCGTGGGTGACGCCGTATGA`, the fluorescence intensity was 6640 a.u.
With `AAGACGAAAGGAGTGCAGGTGATGACAACCTCAGTG` the fluorescence intensity was 5780 a.u.

Sample 3 — technique: RNA Bind-n-Seq; form: RNA; medium: in vitro; tested at: 365 nM; baseline: no-protein control; reading: higher = stronger binding
Target: RNA binding protein fox-1 homolog 2, RRM domain, GST-SBP tag (RBFOX2, Homo sapiens, UniProt O43251-10, residues 100-194)
Setting: natural RNA segment, single round, ends assumed
Shared flanks, not repeated: GGGAGUUCUACAGUCCGACGAUC … UGGAAUUCUCGGGUGCCAA
Construct (chain): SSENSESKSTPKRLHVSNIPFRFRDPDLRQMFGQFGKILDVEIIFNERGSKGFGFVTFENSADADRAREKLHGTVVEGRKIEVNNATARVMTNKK
`GUAGAUAACAGACAAGUCCUAAGCAGUGUUCCACUAAGGGUGGUUCCAGGCCUGCCUGCCGUGGAGUUGACUGGGGGAAUUUUACAGUUUUGCGAUCCUAGGAUGCGUCC` — result for “RBNS enrichment (R)”: 1.53.
`AGGAACGUACUUAUGUAGGACAGAGGUUAGCAACCUGUGGGUCAUGACCCCUUUGGGGAUCAAACUACGCUUUCACAGGGGUCACCAAGGACCAUUGGAAAACACAGAUU`: “RBNS enrichment (R)” 0.409.
`UACUUGUUAGAGGACGGAAGAUUUGCUACAGUGGUCUAGAGUUAAAAUGUGCUCUUUAGUUGCCCAGCACAAGAACGUACCACUCACCUUUUGUAUUCAUAAGCUAAUAU`: “RBNS enrichment (R)” 0.44.
`AAGAUUAGAAAAGGAACCCAAAAAACCCUUUAACAGUGUGAAUCUUUAUAGUAUUUGAAAAUGAGAAGAAGCAGCAGAUUGUAAUUUGGUUUAUUGGAUGUGAUGGACGU` — result for “RBNS enrichment (R)”: 0.626.
Under “RBNS enrichment (R)”, `GAGUUCAUAGAGAACACCAGCACUCUUUGACAAAACUGUGAGUGACCCUUUUUAAACAAUGCUGAGCAGGCCCUGAGCUAUAAUCAACGGUGAGCUUUAAUGUCUAUGCU` is recorded as 0.444.
`AGCCCUGUUGUGCCACAGAGUGUAGCCAGGUCCCCCUGCAGCUAGUCCUAGUGAACCUCACCCCGAGGCCCUGCAUGGGCCAGCCCCUCCAUCUGUACUUGGUCCAACUG`: “RBNS enrichment (R)” 0.388.
For `UUAGGUGCGAGGCAUCACCUUCUCACAAGUGUUUAGUUUCUUUUAACCACAAGUAUCAUUCUUGGGUGAUAAUAUAGUUUCAUUCUACUUAGGGAUUGUUUAGAAAACAA`, “RBNS enrichment (R)” read 0.326.
For `UCAAGGGGCUACACUCCCCAUCAGGCAGCAUCCCACCAGCCUGCACCACAGGCUCCCCUGGGAGGACGAGGGAAACGCUGAUGAGACGCUGGGCAUCUCUCCUCUGUGGC`, “RBNS enrichment (R)” read 0.394.

Sample 4 — technique: protein-binding microarray; form: double-stranded DNA, one strand shown; medium: in vitro; tested at: 250 nM; setting: 60-bp whole probe; added: salmon DNA 0.4 mg/ml; baseline: random background probes; reading: higher = stronger binding; shared flanks, not repeated: GCCTAGCAC … GTCTTGATTCGCTTGACGCTGCTG
Target: Interferon regulatory factor 7, full length, phosphomimetic (IRF7, Homo sapiens, UniProt Q92985, residues 1-503, S101K/S471D/S472D/S475D/S476D/S477D/S483D/S484D/S487D)
Chain of UniProt Q92985 (whole entry, unmodified, looked up): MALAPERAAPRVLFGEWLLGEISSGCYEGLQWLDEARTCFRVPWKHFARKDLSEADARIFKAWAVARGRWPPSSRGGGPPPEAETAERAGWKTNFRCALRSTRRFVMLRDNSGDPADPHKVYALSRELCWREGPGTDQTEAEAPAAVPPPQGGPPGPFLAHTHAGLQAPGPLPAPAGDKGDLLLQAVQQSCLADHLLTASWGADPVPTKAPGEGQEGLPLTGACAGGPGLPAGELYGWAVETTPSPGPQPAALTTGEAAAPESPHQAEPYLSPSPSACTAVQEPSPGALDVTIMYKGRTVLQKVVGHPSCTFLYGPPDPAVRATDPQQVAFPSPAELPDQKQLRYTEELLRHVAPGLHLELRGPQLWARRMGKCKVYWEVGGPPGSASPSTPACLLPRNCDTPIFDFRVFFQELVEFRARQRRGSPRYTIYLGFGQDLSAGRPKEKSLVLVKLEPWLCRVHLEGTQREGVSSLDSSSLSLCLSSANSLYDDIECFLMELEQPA
With `GACGGTCTCCTGTTCCTGACGTGCTAG` the log fluorescence was 0.119 z-score.
With `TCAAGACTCTCTTGTCTGACTGTGCTA` the log fluorescence was -0.0482 z-score.
For `TCATTCATGAAATTTTAGACTGTGCTA`, the log fluorescence was 0.514 z-score.
For `GACGGTTCCGTTTTCGGGACGTGCTAG`, the log fluorescence was 5.16 z-score.
For `TTAGGTCTCCTTTTACTTTAGTGCTAG`, the log fluorescence was 1.82 z-score.
`GACGGTTTCCTTCTCCTCACGTGCTAG` gave a log fluorescence of 2.41 z-score.
`TTAGGAGTCAACTCTCTAATTGTGCTA` has a log fluorescence of -0.4 z-score.
With `TTAGGTATCGACACTGTGTTAGTGCTA` the log fluorescence was 0.0886 z-score.
The log fluorescence of `TTAGCTTTCCTTATCCTTTAGTGCTAG` is reported as 0.902 z-score.
With `CAGAAAATGGAAACTCGTATGGTGCTA` the log fluorescence was 1.01 z-score.
`TTAGGTTTCCTTATCCCTTAGTGCTAG` gave a log fluorescence of 2.61 z-score.
`GACGGTATCCTACTGCCGACGTGCTAG` has a log fluorescence of -0.102 z-score.
`TTAGGACTGGGGATTGGGTTAGTGCTA` has a log fluorescence of -0.4 z-score.
`TCAAAAATGCCCTTTTGGACTGTGCTA` gave a log fluorescence of 0.0153 z-score.
With `TTGGATCTCAGTTTCGATTAGTGCTAG` the log fluorescence was 7.66 z-score.
With `GACCGTCTCGGTTTCGGGACGTGCTAG` the log fluorescence was 4.88 z-score.
The log fluorescence of `TCAGCTTCCTCTTTACTACTGTGCTAG` is reported as 0.452 z-score.
For `TCAAACTTTTTTCTGATACTGTGCTAG`, the log fluorescence was 0.159 z-score.
`GGCTTTGACTCTTTCTGTCAGTGCTAG` gave a log fluorescence of 0.00758 z-score.

Excerpt of the above (sample 1):
`ACUCAGAGAUCCACCUCCCAAAGUGCUGGGAGUAAAGUCUGAUAUUACACACCUAACUUGAUGGAUAUAUAUUUUUUUUAAUAUGAAUCUUCCUGUUCGUCCAGGGAGCAAGAACGGGUU` gave a bound/input enrichment of 0.231 ratio.
`AGCACAACCCCAGCAAAGCUAAGAAAUCCUUGUACAAGUGAACAAAACUGCACCAGCCCAUUUAGCUACAAAAAUGUGCUCAGUCUUACUGACAGAGGAGAGUUUUUUAAUGAACUUGUU` has a bound/input enrichment of 1.27 ratio.
`UGUAGUUUCUUGAUUUAUCAUUUUUCUUGCUCGGGUUUUUCCUUUAGGAAAAGCCUAAAGAUUAGGUUGUAAGAAAAGAAAAUAGAAUGUUUCGAAGACCUGUGUUACAGGUAUUUCGUC` has a bound/input enrichment of 1.14 ratio.
`CCUCUGCCCCGCUCUGCAGCCUGGGGACACUGGGCUGGGACCAGAAUCCAGCUUUCUUUUAAAACUCUCAGUGUAACUGUAUCCCGUUUUUUUCUUUUUUUUUUAAAUAGUGUAUUUUUU` gave a bound/input enrichment of 20.3 ratio.
The bound/input enrichment of `AUGGAGAAGGAUUCUCUGCCCCGCUUUGUGCGCUCUGAAUUUUAUAAGGAGCUAAUCAAGUAGUCAUCUGGUCAGGCUUCCAAAAGUUCCUGUGAGUGUUGAGUUACAUAAUAACCCGCA` is reported as 0.184 ratio.
`CACAGAGCAGCACCUACCUCCUCCUUCUUUCCACACCUGCAAACUCUUUUACUUGGGCUGAAUAUUUAGUGUAAUUACAUCUCAGCUUUGAGGGCUCCUGUGGCAAAAUACCCGGAUAAA` has a bound/input enrichment of 0.769 ratio.
The bound/input enrichment of `AGAGAUAAGACAUCCAGGAACAUGCGAGGCUCCCGGAUGAAUGGGUUGCCUAGCCCCACUCACAGCGCCCACUGUAGCUUCUACAGAACCAGAACCUUGCAGGCAUUGAGUAAUGAGAAG` is reported as 0.124 ratio.
